Published values gathered from unrelated publications.
Each numbered part is a random draw from the data of one study; scales do not carry over between parts.

Study 1 — technique: RNA Bind-n-Seq; form: RNA; matrix: in vitro; tested at: 365 nM; baseline: no-protein control; direction: higher = stronger binding
Target: RNA binding protein fox-1 homolog 2, RRM domain, GST-SBP tag (RBFOX2, Homo sapiens, UniProt O43251-10, residues 100-194)
Notes: natural RNA segment, single round, ends assumed
Target sequence (chain): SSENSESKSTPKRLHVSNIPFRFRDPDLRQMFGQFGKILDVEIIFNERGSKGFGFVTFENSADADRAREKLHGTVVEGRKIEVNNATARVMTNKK
| Strand | RBNS enrichment (R) |
| --- | --- |
| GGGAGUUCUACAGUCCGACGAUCUGAAAAAAACCCUUUUUACUUCAAAAAAAUUGUAAGCCACAUUGUUAAUAAAGUAAAAAUAAAUUCUUGGUGGUGUUUGGGUCUUUGUGUUGAAGGUCAUUCAAUAUUAUUGGAAUUCUCGGGUGCCAA | 0.55 |
| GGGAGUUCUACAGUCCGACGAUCCAAGCAGGAAAAAAGAAACACCAACAGUUGCCAGUGUUUUUGCUUUUUAGCUUAAAAGCAUAGUGAAGAUGCUUGAGGAAGACUUUGCUACCUGGGGUGUGUAGACAGACUGGAAUUCUCGGGUGCCAA | 0.595 |
| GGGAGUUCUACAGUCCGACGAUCCUCCCUGGCCAACACAUACUUGCAGUGUCAGAUCUGGUACAUGAAUGGCCAUUCUACCCAGAUAGGUUUUAGCUUAUAUAUAGGACAUCAGAUUCCCUGGAAUCCUUGGUUGGAAUUCUCGGGUGCCAA | 0.329 |
| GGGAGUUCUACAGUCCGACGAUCCUGUCAUUUGCCUCCGCAACAAAGCGAGUGUAAGUGUCUAAUGCUGAAGCUAGAGUGAACUCAUGUGCCAGCAGAGGCCUCCUCUCUUUAUAGCAAUUCUGACAAUAGGUUGGAAUUCUCGGGUGCCAA | 0.259 |
| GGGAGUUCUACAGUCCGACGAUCGUCCACCCUCCUCUGGAUAUUGGGGAGGGACGGAAGUGACAGGGUGUGGUGGUGGAGUGGGGAGCUGGCUUCUGCUGGCCAGGAUAGCUUAACCCUGACUUUGGGAUCUGUGGAAUUCUCGGGUGCCAA | 0.398 |
| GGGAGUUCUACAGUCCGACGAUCCUUUACUGAUUUAAUACAGAAUAACAAUCUUAUUUUCCACUUGGUAACUAUGGCUUUAUGUUGGGUUACUGUUUAAGGAAAGUUGAUCUGGGCCUUUUUAAAAACAUAAUUGGAAUUCUCGGGUGCCAA | 0.305 |
| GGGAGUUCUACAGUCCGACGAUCACUGCCAAAAUACAUUGACCGUAGUAGCUGUUCAACUCCUAGUACUUAGAAAUACACGUAUGGUUAAUGUUCAGUCCAACAAACCACACACAGUAAAUGUUUAUUAAUAGUGGAAUUCUCGGGUGCCAA | 0.538 |
| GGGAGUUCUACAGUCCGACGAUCGCUCGGCCCUGUCCUCCUCACAGGCUGGUGUGGCCGUCAGGGUGGGUGGGGUUAUUGUUAGUAGGCGCAGCCUCAUUCCCACCACGAUCUGUUCCGCGUGGUUCCCGCCAUGGAAUUCUCGGGUGCCAA | 0.698 |

Study 2 — technique: RNA Bind-n-Seq; form: RNA; matrix: in vitro; tested at: 200 nM; notes: whole 134-nt RNA, ends assumed; added: 150 mM LiCl; baseline: input library; direction: higher = stronger binding; each molecule: 7-deaza-guanosine replaces G
Target: Ras GTPase-activating protein-binding protein 1, full length (G3BP1, Homo sapiens, UniProt Q13283)
UniProt Q13283, sequence (whole entry, looked up): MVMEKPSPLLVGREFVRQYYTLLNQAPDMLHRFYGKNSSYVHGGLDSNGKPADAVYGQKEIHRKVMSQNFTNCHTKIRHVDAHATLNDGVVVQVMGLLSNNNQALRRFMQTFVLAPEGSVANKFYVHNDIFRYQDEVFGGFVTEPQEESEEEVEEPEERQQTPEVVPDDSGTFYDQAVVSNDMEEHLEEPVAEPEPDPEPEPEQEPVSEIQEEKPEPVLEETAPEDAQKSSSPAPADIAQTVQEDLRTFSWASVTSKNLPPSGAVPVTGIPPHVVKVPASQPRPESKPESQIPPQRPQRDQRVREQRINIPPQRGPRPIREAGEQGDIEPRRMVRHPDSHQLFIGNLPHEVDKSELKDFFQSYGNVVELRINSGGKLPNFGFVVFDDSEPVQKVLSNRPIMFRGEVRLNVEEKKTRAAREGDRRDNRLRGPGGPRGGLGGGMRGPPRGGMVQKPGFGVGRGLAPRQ
| Strand | log2 enrichment |
| --- | --- |
| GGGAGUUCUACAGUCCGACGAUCGUCCUGUGCUACACAUCGUAUGUACCGAAUCGGGUUUUUGGGAAAAAGGGUUUUUGGGAAAGUAUUAUGUUACGCCGUUCGGAUCUGCACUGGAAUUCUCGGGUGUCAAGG | -2.25 |
| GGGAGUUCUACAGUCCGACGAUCUCCUCAAGUCCUGUGCUACACAUCGUAUGUACCGAAUCGGGCGGGGCGGCGGAAAGUAUUAUGUUACGCCGUUCGGAUCUGCACUUCCAGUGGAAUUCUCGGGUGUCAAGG | 0.853 |
| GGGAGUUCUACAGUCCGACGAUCUAACUUUAGAGGAGGAUCUGAUGGAUAUGGCAGUGGACGUGGUUUUGGGGAUGGCUAUAAUGGGUAUGGAGGAGGACCUGGAGGUGGCAAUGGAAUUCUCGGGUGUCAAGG | 0.127 |
| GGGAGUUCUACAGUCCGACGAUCGUCCUGUGCUACACAUCGUAUGUACCGAAUCGGGGUUUUUGGUUUUUGGUUUUUGGGGAAAGUAUUAUGUUACGCCGUUCGGAUCUGCACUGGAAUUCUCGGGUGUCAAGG | -0.822 |
| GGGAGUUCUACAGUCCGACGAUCUGGCCCUGGUGGCAUGCGGGGAGGAAGAGGUGGCCUCAUGGAUCGUGGUGGUCCCGGUGGAAUGUUCAGAGGUGCCCGUGGUGGAGACAGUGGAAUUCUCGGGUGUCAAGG | -0.376 |
| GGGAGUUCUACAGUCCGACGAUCUCCUGUGCUACACAUCGUAUGUACCGAAUCGGGGAAAAAAAGGGGAAAAAGGGGAGGGGAAAGUAUUAUGUUACGCCGUUCGGAUCUGCAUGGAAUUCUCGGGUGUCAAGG | 0.0915 |
| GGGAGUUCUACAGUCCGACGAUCUGGGAGGUGGAUUUUGUUUAUUUUUUUAGCUCAUUUCCAAGGGUGGGAAUUUUUUUUUAAUAUGUGUCAUGAAUAAAGUUGUUUUUGAAAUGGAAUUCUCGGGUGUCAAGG | 0.178 |
| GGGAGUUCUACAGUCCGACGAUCCCUCAAGUCCUGUGCUACACAUCGUAUGUACCGAAUCGGCCGGGCCGGCCGGGAAAGUAUUAUGUUACGCCGUUCGGAUCUGCACUUCCAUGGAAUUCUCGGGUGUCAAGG | 0.433 |

Study 3 — technique: protein-binding microarray; form: double-stranded DNA, one strand shown; matrix: in vitro; tested at: 2540 nM top; notes: 60-bp whole probe; added: salmon DNA 0.4 mg/ml; baseline: random background probes; direction: higher = stronger binding; all sequences stand within: GCCTAGCAC … GTCTTGATTCGCTTGACGCTGCTG
Target: Interferon regulatory factor 3, full length, phosphomimetic (IRF3, Homo sapiens, UniProt Q14653, residues 1-427, S386D/S396D/S398D/S402D/T404D/S405D)
UniProt Q14653, sequence (whole entry, unmodified, looked up): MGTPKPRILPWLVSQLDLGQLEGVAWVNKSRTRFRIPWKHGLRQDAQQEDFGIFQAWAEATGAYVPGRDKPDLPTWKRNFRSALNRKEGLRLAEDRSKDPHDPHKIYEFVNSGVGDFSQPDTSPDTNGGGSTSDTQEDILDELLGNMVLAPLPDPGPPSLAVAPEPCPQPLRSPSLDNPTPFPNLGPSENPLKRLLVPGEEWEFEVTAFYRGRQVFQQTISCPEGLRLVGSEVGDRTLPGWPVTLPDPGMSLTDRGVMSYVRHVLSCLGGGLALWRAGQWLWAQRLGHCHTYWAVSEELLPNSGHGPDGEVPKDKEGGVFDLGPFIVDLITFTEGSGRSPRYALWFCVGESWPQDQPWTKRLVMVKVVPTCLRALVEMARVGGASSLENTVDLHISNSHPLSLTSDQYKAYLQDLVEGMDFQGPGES
| Strand | fitted relative affinity [z-score] |
| --- | --- |
| GGGTCACTCAATCTCAACAGGTGCTAG | 0.113 |
| TTAGGTAACGGACTGGGTTAGTGCTAG | -0.25 |
| CCAGCTCTGATGTTGGGAAAGTGCTAG | 0.169 |
| TTAGGTATCGGTCTCGCTTAGTGCTAG | 3.99 |
| TTAGATCTTAGTCTCGATTAGTGCTAG | 0.153 |
| TTAGGTTTCGGGTATCGGGTAGTGCTA | 4.28 |
| GACGGTTTCGGGTTTCTGGACGTGCTA | 5.61 |
| TCACCTCCCTAATTCTGACTGTGCTAG | 0.536 |
| GACGGTATCGGGTTCCGGGACGTGCTA | 2.22 |
| GACAGTATCGGTATCGGGACGTGCTAG | 4.86 |
| GACGGTATCCTACTGCTGATGTGCTAG | 2.51 |
| TGGACTGCACAAGGGCCAGTGTGCTAG | -0.737 |
| AGCACTCCAGAGGCAGAGGCGTGCTAG | -0.973 |
| TCATTTTTAATGAATGAAACTGTGCTA | 1.14 |
| TTAGGTCTCCTACTGCTGTAGTGCTAG | 0.784 |
| GACGATATCAATCTCGAGACGTGCTAG | 0.819 |
| TTACGTCTCCTTTTCCTTTAGTGCTAG | 4.74 |
| TTGGATTCCAGTTTCGATTAGTGCTAG | 4.38 |
| TTAGGTCTCGGTCTCGGCTAGTGCTAG | 0.725 |

Study 4 — technique: protein binding microarray; form: double-stranded DNA, one strand shown; matrix: in vitro; tested at: not given; baseline: not given; direction: higher = stronger binding
Target: Histone acetyltransferase KAT6A, winged helix 1, GST fusion (KAT6A, Homo sapiens, UniProt Q92794, residues 1-85)
Notes: 8-mer, flanks averaged, mean of 2 arrays, mostly near background
Residues (chain): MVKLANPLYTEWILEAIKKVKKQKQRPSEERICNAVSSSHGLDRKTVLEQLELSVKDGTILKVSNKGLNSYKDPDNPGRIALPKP
| Strand | E-score |
| --- | --- |
| AGTAGGTA | -0.13 |
| CAGACCCG | 0.343 |
| CAGACATC | -0.257 |
| AAGACGGA | 0.0652 |
| ATCGGCTC | 0.0805 |
| GGAGCACC | -0.0157 |
| ATATGGAG | -0.0763 |
| GGTCGTTA | -0.0258 |
| AATCTAAC | -0.0263 |
| ACGACACT | -0.153 |
| ATGATTGA | -0.32 |
| CGATTTTA | 0.0635 |
| CCAGCGCG | 0.356 |
| TACCGGCA | 0.345 |
| CACTGGGG | -0.159 |
| ATACGTTA | -0.117 |
| ACCTGTAA | -0.0775 |
| AGATATCA | -0.201 |
| AGTACACT | -0.104 |
| CTTCCTAA | -0.253 |
| AGTGGGAA | -0.18 |
| AACTCATC | -0.0328 |
| CGTGGACC | 0.195 |
| GAACTCCA | -0.209 |
| AAGCATCC | 0.0708 |

A few entries again (study 3):
| Strand | fitted relative affinity [z-score] |
| --- | --- |
| TGGACTGCACAAGGGCCAGTGTGCTAG | -0.737 |
| GGGTCACTCAATCTCAACAGGTGCTAG | 0.113 |
| TTAGGTAACGGACTGGGTTAGTGCTAG | -0.25 |
